Assay results gathered from unrelated publications.
A part holds a random share of what one study measured. Changes are numbered by the printed parent chain.

Set 1 — technique: two-hybrid; relative to: out of 4 tests; reading: higher = firmer interaction
Partner: ARF14 497-605 (Arabidopsis thaliana, UniProt Q9LQE8)
B1: ARF8 699-811 (Arabidopsis thaliana, UniProt Q9FGV1); chain NSSNQTKNFVKVYKSGSVGRSLDISRFSSYHELREELGKMFAIEGLLEDPLRSGWQLVFVDKENDILLLGDDPWESFVNNVWYIKILSPEDVHQMGDHGEGSGGLFPQNPTHL
B2: ARF10 575-693 (Arabidopsis thaliana, UniProt Q9SKN5); chain LQGLETGHCKVFMESEDVGRTLDLSVIGSYQELYRKLAEMFHIEERSDLLTHVVYRDANGVIKRIGDEPFSDFMKATKRLTIKMDIGGDNVRKTWITGIRTGENGIDASTKTGPLSIFA
B3: ARF2 727-859 (Arabidopsis thaliana, UniProt Q94JM3); chain TKTNSSRSCTKVHKQGIALGRSVDLSKFQNYEELVAELDRLFEFNGELMAPKKDWLIVYTDEENDMMLVGDDPWQEFCCMVRKIFIYTKEEVRKMNPGTLSCRSEEEAVVGEGSDAKDAKSASNPSLSSAGNS
B4: ARF11 500-622 (Arabidopsis thaliana, UniProt Q9ZPY6); chain SPKEQKQQTSTRSRIKVQMQGTAVGRAVDLTLLRSYDELIKELEKMFEIEGELSPKDKWAIVFTDDEGDRMLVGDDPWNEFCKMAKKLFIYPSDEVKKMRSKSLLGDKGTIVNLESDQRTVHV
B5: ARF1 538-665 (Arabidopsis thaliana, UniProt Q8L7G0); chain SRQIRSCTKVHMQGSAVGRAIDLTRSECYEDLFKKLEEMFDIKGELLESTKKWQVVYTDDEDDMMMVGDDPWNEFCGMVRKIFIYTPEEVKKLSPKNKLAVNARMQLKADAEENGNTEGRSSSMAGSR
Construct (chain): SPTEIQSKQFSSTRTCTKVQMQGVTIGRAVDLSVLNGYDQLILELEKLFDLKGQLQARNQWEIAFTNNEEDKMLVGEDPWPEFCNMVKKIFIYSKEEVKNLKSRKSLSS
| Molecule | positive tests |
| --- | --- |
| B1 (ARF8 699-811) | 0 |
| B2 (ARF10 575-693) | 0 |
| B3 (ARF2 727-859) | 0 |
| B4 (ARF11 500-622) | 0 |
| B5 (ARF1 538-665) | 0 |

Set 2 — target: BATF, bZIP domain (human); technique: DHFR protein complementation; sample: yeast; relative to: wild-type JUN-FOS pair; reading: higher = stronger binding
Notes: single substitutions, most at no-binding floor
Starting sequence: JUN, bZIP domain (human); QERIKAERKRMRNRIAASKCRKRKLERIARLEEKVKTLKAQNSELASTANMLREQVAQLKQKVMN; partner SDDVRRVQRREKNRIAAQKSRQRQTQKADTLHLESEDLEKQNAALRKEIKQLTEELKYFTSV
| Variant | binding fitness [natural log] |
| --- | --- |
| V35K | -0.291 |
| T37M | 0.15 |
| V35I | -0.012 |
| K36A | 0.0756 |
| A40R | 0.043 |
| R53T | -0.501 |
| E54N | -0.0449 |
| L38A | -0.268 |

Set 3 — technique: protein-binding microarray; form: double-stranded DNA, one strand shown; sample: in vitro; concentration: 2200 nM top; notes: 60-bp whole probe; together with: salmon DNA 0.4 mg/ml; relative to: random background probes; reading: higher = stronger binding
Target: Interferon regulatory factor 7, full length, phosphomimetic (IRF7, Homo sapiens, UniProt Q92985, residues 1-503, S471D/S472D/S475D/S476D/S477D/S483D/S484D/S487D)
All sequences stand within: GCCTAGCAC … GTGCTAGGTCTTGATTCGCTTGACGCTGCTG
Target sequence (chain): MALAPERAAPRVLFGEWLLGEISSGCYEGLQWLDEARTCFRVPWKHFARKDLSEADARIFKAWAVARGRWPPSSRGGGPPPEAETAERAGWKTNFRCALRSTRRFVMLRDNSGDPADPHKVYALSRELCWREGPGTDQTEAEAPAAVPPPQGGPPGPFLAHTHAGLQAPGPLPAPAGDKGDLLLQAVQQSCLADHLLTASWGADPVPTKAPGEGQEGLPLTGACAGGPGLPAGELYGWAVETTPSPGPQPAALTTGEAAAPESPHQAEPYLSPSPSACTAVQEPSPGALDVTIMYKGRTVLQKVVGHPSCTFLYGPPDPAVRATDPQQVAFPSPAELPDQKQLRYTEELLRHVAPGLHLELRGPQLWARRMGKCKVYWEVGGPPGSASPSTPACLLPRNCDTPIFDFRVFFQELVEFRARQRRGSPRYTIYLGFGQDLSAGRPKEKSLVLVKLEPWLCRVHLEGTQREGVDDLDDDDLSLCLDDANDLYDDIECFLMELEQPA
| Strand | fitted relative affinity [z-score] |
| --- | --- |
| TTGGATTTCAGTTCCGATTA | 1.98 |
| GACGGTATCCTACTGCAGAC | 0.588 |
| TTAGACCTGAGTTTCGATTA | 4.09 |
| TGCTCTTTCTACATAGATGT | 1.89 |
| GACGGTCTCGGTTTCGGGAC | 3.85 |
| TTAGGTCTCGGTCTCTGTTA | 1.1 |
| TCATTTTTAGATTTTTTACT | 1.24 |
| GACGCACTGCTTATCCTGAC | 0.872 |

Single results of other studies
| Structure (SMILES) | technique | measured | species | dose | notes | quantity | result |
| --- | --- | --- | --- | --- | --- | --- | --- |
| CC(C)n1cnc(-c2ccc(F)cc2)c1-c1ncc(C(=O)Nc2ccc(N3CCN(C)CC3)cc2)[nH]1 | Phase 2a trial | bile acids increased | idiopathic pulmonary fibrosis patients | 60 mg once daily | grade 2 maximum intensity | patients with adverse events | 0% |

Some of these lines once more (set 3):
| Strand | fitted relative affinity [z-score] |
| --- | --- |
| GACGGTATCCTACTGCAGAC | 0.588 |
| GACGGTCTCGGTTTCGGGAC | 3.85 |
| TCATTTTTAGATTTTTTACT | 1.24 |
